Experimental data pooled from the literature.
Every numbered part comes from another study and shows a few of its results, in no order.

Set 1
Cell line: HEK-293T
Effect on: pseudovirus infection
Technique: FDA-approved drug library screen
Organism: VSV pseudotyped with SARS-CoV-2 spike
Concentration: 10 µM
Time: 16 h
Relative to: vehicle-treated
For `O=P(O)(O)C(O)(Cc1cccnc1)P(=O)(O)O`, the GFP-positive cells was 106%.
`N=C(N)NC(=O)Cc1c(Cl)cccc1Cl` has a GFP-positive cells of 79.6%.
For `Cc1nc(Nc2ncc(C(=O)Nc3c(C)cccc3Cl)s2)cc(N2CCN(CCO)CC2)n1`, the GFP-positive cells was 69%.
With `CC(C)(Sc1cc(C(C)(C)C)c(O)c(C(C)(C)C)c1)Sc1cc(C(C)(C)C)c(O)c(C(C)(C)C)c1` the GFP-positive cells was 120%.

Set 2
Target: Histone acetyltransferase KAT6A, winged helix 2, GST fusion (KAT6A, Homo sapiens, UniProt Q92794, residues 85-181)
Technique: protein binding microarray
Molecule type: double-stranded DNA, one strand shown
Medium: in vitro
Concentration: not given
Notes: 8-mer, flanks averaged, mean of 2 arrays, mostly near background
Relative to: not given
Direction: higher = stronger binding
Construct (chain): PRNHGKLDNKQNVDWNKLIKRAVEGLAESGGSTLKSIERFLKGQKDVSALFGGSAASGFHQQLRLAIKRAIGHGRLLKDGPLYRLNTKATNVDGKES
`GCACCCCA` has an E-score of 0.0458.
For `TAAAGCTA`, the E-score was -0.111.
For `GGAGCGAC`, the E-score was 0.101.
For `ACGTGTGA`, the E-score was -0.152.
For `AACAACAA`, the E-score was 0.122.
With `CACACGAC` the E-score was -0.0968.
`ACAACGAC` gave an E-score of 0.047.
With `CGCCAAAG` the E-score was -0.0024.

Set 3
Target: Replicase polyprotein 1ab, main protease (rep, Severe acute respiratory syndrome coronavirus 2, UniProt P0DTD1)
Effect on: enzyme activity
Action: inhibitor
Concentration: 20 µM
Notes: primary screen
The inhibition of `O=C1OC2(c3cc(I)c(O)c(I)c3Oc3c2cc(I)c(O)c3I)c2c(Cl)c(Cl)c(Cl)c(Cl)c21` is reported as 101%.
`CCOC(=O)Cc1ccc(-c2ccccc2)cc1` has an inhibition of 96.2%.
For `C=C1C(=O)O[C@H]2[C@H]1CC/C(C)=C\CC[C@@]1(C)O[C@@H]21`, the inhibition was 39.1%.
The inhibition of `CCOc1ccc(Nc2nc(-c3c(C)nc4ccccn34)cs2)cc1` is reported as 76%.
The inhibition of `CCn1c(-c2nonc2N)nc2cnc(Oc3cccc(NC(=O)c4ccc(OCCN5CCOCC5)cc4)c3)cc21` is reported as 29.1%.

Set 4
Target: Ras GTPase-activating protein-binding protein 1, C-terminal RGG region (G3BP1, Homo sapiens, UniProt Q13283)
UniProt Q13283, sequence (whole entry, looked up): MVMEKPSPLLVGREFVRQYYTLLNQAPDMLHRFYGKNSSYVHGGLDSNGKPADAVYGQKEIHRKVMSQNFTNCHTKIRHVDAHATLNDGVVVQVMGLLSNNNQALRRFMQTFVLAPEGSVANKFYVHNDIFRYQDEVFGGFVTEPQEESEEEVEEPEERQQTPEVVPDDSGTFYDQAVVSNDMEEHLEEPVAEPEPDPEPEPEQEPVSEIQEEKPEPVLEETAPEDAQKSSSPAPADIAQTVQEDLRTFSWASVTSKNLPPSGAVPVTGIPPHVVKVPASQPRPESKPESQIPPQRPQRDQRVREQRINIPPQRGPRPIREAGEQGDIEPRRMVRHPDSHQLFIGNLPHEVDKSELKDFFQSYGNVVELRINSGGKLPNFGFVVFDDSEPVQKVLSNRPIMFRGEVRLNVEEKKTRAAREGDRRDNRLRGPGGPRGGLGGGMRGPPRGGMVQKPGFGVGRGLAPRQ
Technique: RNA Bind-n-Seq
Molecule type: RNA
Medium: in vitro
Concentration: 1 µM
Notes: whole 134-nt RNA, ends assumed
With: 150 mM KCl
Relative to: input library
Direction: higher = stronger binding
`GGGAGUUCUACAGUCCGACGAUCUGGGAGGUGGAUUUUGUUUAUUUUUUUAGCUCAUUUCCACGGGUGGGAAUUUUUUUUUAAUAUGUGUCAUGAAUAAAGUUGUUUUUGAAAUGGAAUUCUCGGGUGUCAAGG` has a log2 enrichment of 3.5.
`GGGAGUUCUACAGUCCGACGAUCUUAGAAGAAUUUGGAAGGCCUUAAAUAUAGUAGCUUAGUUUGAAAAAUGUGAAGGACUUUCGUAACGGAAGUAAUUCAAGAUCAAGAGUAUGGAAUUCUCGGGUGUCAAGG` gave a log2 enrichment of -2.85.
With `GGGAGUUCUACAGUCCGACGAUCAGUCCUGUGCUACACAUCGUAUGUACCGAAUCGGGGCCCCGGGGCCCCGGCCCCGGGGAAAGUAUUAUGUUACGCCGUUCGGAUCUGCACUGGAAUUCUCGGGUGUCAAGG` the log2 enrichment was -2.9.
The log2 enrichment of `GGGAGUUCUACAGUCCGACGAUCUCAAGUCCUGUGCUACACAUCGUAUGUACCGAAUCGGUUUUUUUGGUUUGGUGGAAAGUAUUAUGUUACGCCGUUCGGAUCUGCACUUCCUGGAAUUCUCGGGUGUCAAGG` is reported as -1.4.

Set 5
Target: Replicase polyprotein 1ab, polymerase (rep, Severe acute respiratory syndrome coronavirus 2, UniProt P0DTD1)
Effect on: enzyme activity
Action: inhibitor
Concentration: 20 µM
For `O=C1c2ccccc2C(Cc2ccncc2)(Cc2ccncc2)c2ccccc21`, the inhibition was -1.39%.
With `C[C@H]1C[C@H]2[C@@H]3CCC4=CC(=O)C=C[C@]4(C)[C@@]3(Cl)[C@@H](O)C[C@]2(C)[C@@]1(O)C(=O)CO` the inhibition was 3.04%.
The inhibition of `CCCc1c2oc(C(=O)O)cc(=O)c2cc2c(=O)cc(C(=O)O)n(CC)c12` is reported as 7.4%.
`CNC(=O)Nc1ccc(-c2nc(N3CC4CCC(C3)O4)c3cnn(C4CCC5(CC4)OCCO5)c3n2)cc1` has an inhibition of -0.72%.
With `CC1(C)S[C@@H]2[C@H](NC(=O)Cc3ccccc3)C(=O)N2[C@H]1C(=O)O` the inhibition was 18.2%.
For `Nc1ncnc2c1ncn2[C@@H]1O[C@H](C[C@@H](N)CC[C@H](N)C(=O)O)[C@@H](O)[C@H]1O`, the inhibition was -2.96%.
`CN(C)CC(c1ccc(O)cc1)C1(O)CCCCC1` (stereo not drawn) gave an inhibition of -4.11%.
For `Nc1ncn([C@H]2C[C@H](O)[C@@H](CO)O2)c(=O)n1`, the inhibition was 2.45%.
`Nc1nc(=O)c2nc(CNc3ccc(C(=O)N[C@@H](CCC(=O)O)C(=O)O)cc3)cnc2[nH]1` gave an inhibition of 37.3%.
For `O=c1c2ccccc2nc2n1CCCCC2`, the inhibition was -0.75%.
The inhibition of `C#Cc1cccc(Nc2ncnc3cc(OCCOC)c(OCCO)cc23)c1` is reported as 3.06%.
With `CN1C(=O)C(N2CCCCC2)S/C1=C\C(=O)O` (stereo not drawn) the inhibition was 2.85%.
The inhibition of `Nc1[nH]nc2nnc(-c3c(-c4ccccc4)nn4ccccc34)cc12` is reported as 10.6%.
With `CCS(=O)(=O)N1CCC([C@@H](C)n2c(C)c(C(=O)NCc3c(OC)cc(C)[nH]c3=O)c3ccccc32)CC1` the inhibition was -5.12%.
For `C[C@]12CC[C@H](O)C[C@H]1CC[C@@H]1[C@@H]2C[C@@H](O)[C@]2(C)[C@@H](C3=CC(=O)OC3)CC[C@]12O`, the inhibition was -0.92%.
For `O=C(OCCN1CCOCC1)c1cccnc1Nc1cccc(C(F)(F)F)c1`, the inhibition was 1.77%.
For `CC(C)SC(=N)N`, the inhibition was 3.95%.
The inhibition of `C[C@@H](CN1CC(=O)NC(=O)C1)N1CC(=O)NC(=O)C1` is reported as 11.7%.
With `COc1ccc2cc(C(C)C(=O)Oc3ccc(C(N)=S)cc3)ccc2c1` (stereo not drawn) the inhibition was 2.27%.
`CNCC(O)c1ccc(OC(=O)C(C)(C)C)c(OC(=O)C(C)(C)C)c1` (stereo not drawn) has an inhibition of -0.77%.
With `Clc1cccc(-n2nnnc2NCc2ccccc2Oc2ccccn2)c1Cl` the inhibition was 5.95%.
With `O=[N+]([O-])c1ncc[nH]1` the inhibition was 0.73%.
The inhibition of `CCOc1ccccc1OCC1CNCCO1` (stereo not drawn) is reported as -0.19%.
`O=C(NCc1ccc(Oc2ccccc2)cc1)c1nc(-c2cc(Br)c(O)c(Br)c2)no1` gave an inhibition of -7.86%.
For `O=c1c(-n2ccnn2)c[nH]n1-c1cc(N2CCOCC2)ncn1`, the inhibition was 22.3%.

Set 6
Target: Interferon regulatory factor 3, full length, phosphomimetic (IRF3, Homo sapiens, UniProt Q14653, residues 1-427, S386D/S396D/S398D/S402D/T404D/S405D)
UniProt Q14653, sequence (whole entry, unmodified, looked up): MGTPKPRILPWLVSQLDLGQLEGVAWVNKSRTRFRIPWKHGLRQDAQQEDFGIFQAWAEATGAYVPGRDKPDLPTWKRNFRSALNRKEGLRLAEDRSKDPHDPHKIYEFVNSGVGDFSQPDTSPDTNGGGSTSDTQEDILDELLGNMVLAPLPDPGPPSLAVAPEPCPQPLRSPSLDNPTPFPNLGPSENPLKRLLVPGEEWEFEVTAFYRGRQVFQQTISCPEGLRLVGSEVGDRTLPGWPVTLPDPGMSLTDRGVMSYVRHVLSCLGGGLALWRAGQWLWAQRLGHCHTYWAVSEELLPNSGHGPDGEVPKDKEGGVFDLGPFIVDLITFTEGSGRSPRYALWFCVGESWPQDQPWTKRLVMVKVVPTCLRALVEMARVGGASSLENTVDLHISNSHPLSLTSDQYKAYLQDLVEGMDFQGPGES
Technique: protein-binding microarray
Molecule type: double-stranded DNA, one strand shown
Medium: in vitro
Concentration: 2540 nM top
Notes: 60-bp whole probe
With: salmon DNA 0.4 mg/ml
Relative to: random background probes
Direction: higher = stronger binding
Constant ends, left off below: GCCTAGCAC … GTCTTGATTCGCTTGACGCTGCTG
`TTAGATTTTGGGACTGGATTAGTGCTA` — result for “fitted relative affinity”: -0.321 z-score.
Under “fitted relative affinity”, `TTAGGTATCGGGTATCGGTTAGTGCTA` is recorded as 2 z-score.
Under “fitted relative affinity”, `TTAGATATCGGGACTGGATGAGTGCTA` is recorded as -0.0517 z-score.
Under “fitted relative affinity”, `TTAGGTTTCGAATTTCGGTTAGTGCTA` is recorded as 5.39 z-score.
For `GTCGGTTTCGGTATCGGGACGTGCTAG`, “fitted relative affinity” read 9.24 z-score.
`GACGGTTTCCTTTTCCTGATGTGCTAG`: “fitted relative affinity” 10.5 z-score.
`GACTGTTTCGGACTGGGGACGTGCTAG` — result for “fitted relative affinity”: 3.74 z-score.
For `CTGCGGTGAGTGCGTTATCGGTGCTAG`, “fitted relative affinity” read -0.265 z-score.

For quick reference, copied from above (set 5):
The inhibition of `CCOc1ccccc1OCC1CNCCO1` (stereo not drawn) is reported as -0.19%.
The inhibition of `CCCc1c2oc(C(=O)O)cc(=O)c2cc2c(=O)cc(C(=O)O)n(CC)c12` is reported as 7.4%.
`Nc1nc(=O)c2nc(CNc3ccc(C(=O)N[C@@H](CCC(=O)O)C(=O)O)cc3)cnc2[nH]1` gave an inhibition of 37.3%.
The inhibition of `C[C@@H](CN1CC(=O)NC(=O)C1)N1CC(=O)NC(=O)C1` is reported as 11.7%.
With `CC1(C)S[C@@H]2[C@H](NC(=O)Cc3ccccc3)C(=O)N2[C@H]1C(=O)O` the inhibition was 18.2%.
For `O=C(OCCN1CCOCC1)c1cccnc1Nc1cccc(C(F)(F)F)c1`, the inhibition was 1.77%.
`O=C(NCc1ccc(Oc2ccccc2)cc1)c1nc(-c2cc(Br)c(O)c(Br)c2)no1` gave an inhibition of -7.86%.
With `O=[N+]([O-])c1ncc[nH]1` the inhibition was 0.73%.
